Results of several laboratories.
Each numbered part is a random draw from the data of one study; scales do not carry over between parts. Positions count from the first letter of the parent shown.

Series 1 — method: RNA Bind-n-Seq; form: RNA; sample: in vitro; tested at: 365 nM; baseline: no-protein control; direction: higher = stronger binding; endpoint: RBNS enrichment (R)
Target: RNA binding protein fox-1 homolog 2, RRM domain, GST-SBP tag (RBFOX2, Homo sapiens, UniProt O43251-10, residues 100-194)
Notes: natural RNA segment, single round, ends assumed
Constant ends, left off below: GGGAGUUCUACAGUCCGACGAUC … UGGAAUUCUCGGGUGCCAA
Residues (chain): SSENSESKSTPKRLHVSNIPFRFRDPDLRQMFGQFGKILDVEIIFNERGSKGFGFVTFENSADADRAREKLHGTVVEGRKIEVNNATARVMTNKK
Sequence = AGACCUAGCCUGGUUUUCCCUUAGACAAUGAAUGAAGUGUGCCCAUUGAAAUAAAACUCAAACCACACUGCGGUUGUUGUCUUAAUGAUUAAAUGUUCCGUUUCUAGCUG; value = 0.256
Sequence = ACGUGUCUGCCAGGGCUCAAGUUUUAUUGUUCUUGCCCCACUCCCACCCCAUGUUACAGCAAGACUGGUCUUACAGAGUGAGUACUCUGGGUGAUGCUUACGGGAAGGAG; value = 2
Sequence = CUUUUUCCCAGGGAGCCGUUUCAGGGGUUCUGGGCAGUAGGCUGGGCCUGGCCUCAGAACCUGGUGGCUCCUGCCUGCUCCUUCACUUUUGUAAAACCAUCCCCUUCACC; value = 0.671
Sequence = CUUCACAGAAUGAUGGCAUCUUCCUAAACCCUUCUGGGAGAUGUCUGAGAAGUUGUGAAGGGUCCAGAGCCAGUCUGCUUUAGAGUCCAAUAAAGUGUAGGUGUGGCAAU; value = 0.358
Sequence = UGGAACUGUGCAAGAAAAGAACAAGGAAAAAUGGAUGUUUCGCUGCAGGAUUAAGUUACAAUUAUCUUCUCAGUGAAGGUCAUUUGUGAUGGGGUCUAAUUCUUAUUACU; value = 0.839
Sequence = ACUCCAGUCCUUCCUUGAGUGUAUCCUGUGGCCUACAUGUGUCUUCAUCCUUCCCUAAUGCCGUCUUGGGGCAGGGAUGGAAUAUGACCAGAAAGUUGUGGAUUAAAGGC; value = 0.461
Sequence = UUUAUUUUAUCCCUAAUAACAGAAGUCUCCCUUCCAUGGUUUUAGCGUUGCCUUUUUAAAAAGGCACUCACCCUGAGUUGUUAAGAACUGGACCUGCCCCACCCUCAGAU; value = 0.31
Sequence = AGAAUGUCCUUAUUCUUGUGGUUAAAAAACCUGCCUGAAUUAAAUUGGGCUUAAAUCAGUGUAACCUGAUUCAUCCUGGGAUGUAAACCAUUUGAAGUCAGCUAAUUUGA; value = 0.525

Series 2 — method: RNAcompete; form: RNA; sample: in vitro; tested at: 20 nM; notes: 7-mer, probes averaged, single round; baseline: mean of 7-mers; direction: higher = stronger binding; endpoint: 7-mer Z-score
Target: PABPC1L2, full length, GST fusion (mouse, UniProt A0ABA7IW68)
Target sequence (chain): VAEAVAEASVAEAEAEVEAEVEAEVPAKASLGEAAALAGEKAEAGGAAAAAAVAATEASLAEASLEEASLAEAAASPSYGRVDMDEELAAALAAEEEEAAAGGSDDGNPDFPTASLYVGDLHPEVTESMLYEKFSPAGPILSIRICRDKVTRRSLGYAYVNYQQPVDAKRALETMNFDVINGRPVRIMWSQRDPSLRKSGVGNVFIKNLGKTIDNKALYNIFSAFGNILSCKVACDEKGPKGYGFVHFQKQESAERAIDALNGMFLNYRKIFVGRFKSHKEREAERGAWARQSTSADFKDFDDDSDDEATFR
Sequence = GUCAAAG; value = -0.175
Sequence = AAACACC; value = 1.78
Sequence = AAGUGUG; value = 0.249
Sequence = CUGUGAU; value = -0.302
Sequence = UAGAUCA; value = -0.0935
Sequence = AAGUAGA; value = 0.528
Sequence = GUAUUGC; value = -0.148
Sequence = UACACAG; value = -0.2
Sequence = UGCGGAA; value = 0.171
Sequence = ACGCGUC; value = -0.157
Sequence = UCGGCCU; value = -0.429
Sequence = CAACAGA; value = 0.213
Sequence = UCCUAUC; value = -0.369
Sequence = GUGGUAA; value = 0.16
Sequence = UCUGCUU; value = -0.34
Sequence = CGAAGGA; value = 0.148
Sequence = GAACGUC; value = -0.115
Sequence = GUUUUGC; value = -0.469
Sequence = UGUAAGA; value = -0.0228
Sequence = CGGCACU; value = -0.128

Series 3 — target: CCND3, cyclin fold, Cln2 fusion (human); method: yeast growth competition, sequencing; sample: yeast; notes: weak parent motif; baseline: not given; direction: higher = stronger binding; endpoint: normalised enrichment score
Starting sequence: FZR1 docking peptide (human); QDYERRLLRQIVI
Variant = QDYEKRLFRQIVI [R5K L8F]; value = -0.105
Variant = QDYEARALRQIVI [R5A L7A]; value = 0.174
Variant = QAYERRLLRQIVI [D2A]; value = 0.156
Variant = QDYERRLLRQAVI [I11A]; value = 0.216
Variant = QDAERRLLRQIVI [Y3A]; value = 0.112
Variant = QDYARRLLRQIVI [E4A]; value = 0.0868
Variant = QDYEARLLRQIVI [R5A]; value = 0.24
Variant = QDYERRLLRQIAI [V12A]; value = 0.148
Variant = ADYERRLLRQIVI [Q1A]; value = 0.129
Variant = QDYERRLFRQIVI [L8F]; value = -0.0311

Series 4 — method: protein binding microarray; form: double-stranded DNA, one strand shown; sample: in vitro; tested at: not given; baseline: not given; direction: higher = stronger binding; endpoint: E-score
Target: Histone acetyltransferase KAT6A, winged helix 2, GST fusion (KAT6A, Homo sapiens, UniProt Q92794, residues 85-181)
Notes: 8-mer, flanks averaged, mean of 2 arrays, mostly near background
Construct (chain): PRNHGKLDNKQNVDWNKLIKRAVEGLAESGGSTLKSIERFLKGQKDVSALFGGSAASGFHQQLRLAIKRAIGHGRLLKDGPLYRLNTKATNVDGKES
Sequence = CTTGCTCC; value = 0.00615
Sequence = AGCCTCCG; value = 0.0709
Sequence = GCCTGCAC; value = 0.121
Sequence = ACCACGAC; value = 0.0708
Sequence = AATGCGAC; value = 0.182
Sequence = AGAATCCG; value = 0.0599
Sequence = CCAAGAAC; value = 0.19
Sequence = AAGGAGAC; value = -0.029
Sequence = ACTAGCCA; value = -0.0703
Sequence = ATACTTCC; value = -0.146
Sequence = AAACGTAT; value = -0.139
Sequence = CAGTACGA; value = 0.00553
Sequence = GATGTCGC; value = -0.0757
Sequence = ACCCTAGG; value = -0.099
Sequence = ATGGTATG; value = -0.157
Sequence = CCTCGCTC; value = 0.295
Sequence = ACTTTAGG; value = -0.154
Sequence = CACTCCCA; value = -0.013
Sequence = ACATCCTG; value = 0.0244
Sequence = CGCGGCTC; value = 0.0146
Sequence = CACTCTCG; value = -0.00337
Sequence = AACGGAGT; value = 0.235
Sequence = CAAACAGC; value = 0.0412
Sequence = AAGCATGA; value = 0.165
Sequence = CCAACGAA; value = -0.0476

Series 5 — method: DHFR PCA, deep sequencing; sample: yeast; added: (+)-ABA 0.39 µM; baseline: wild-type fitted maximum; direction: higher = stronger binding; endpoint: relative binding score
Target: ABI1, truncated, D143A, DHFR fusion (Arabidopsis thaliana)
Notes: methotrexate growth selection, single substitutions
Starting sequence: PYL1, truncated, DHFR fusion (Arabidopsis thaliana); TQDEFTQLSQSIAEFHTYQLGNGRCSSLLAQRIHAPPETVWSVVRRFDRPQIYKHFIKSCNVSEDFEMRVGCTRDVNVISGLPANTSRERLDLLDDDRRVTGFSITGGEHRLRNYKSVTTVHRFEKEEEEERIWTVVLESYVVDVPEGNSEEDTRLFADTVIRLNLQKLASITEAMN; partner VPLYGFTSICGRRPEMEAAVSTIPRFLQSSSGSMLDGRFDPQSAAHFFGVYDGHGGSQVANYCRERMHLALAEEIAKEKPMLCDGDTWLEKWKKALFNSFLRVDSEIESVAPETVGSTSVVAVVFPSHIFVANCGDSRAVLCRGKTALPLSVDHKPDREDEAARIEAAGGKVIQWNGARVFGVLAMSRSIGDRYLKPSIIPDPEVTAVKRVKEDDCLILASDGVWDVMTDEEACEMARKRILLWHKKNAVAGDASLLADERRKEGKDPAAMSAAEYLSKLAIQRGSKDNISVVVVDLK
Variant = D48V; value = -8.98%
Variant = R24S; value = 14.3%
Variant = R123M; value = 18.5%
Variant = E64V; value = 20%
Variant = H110I; value = 9.12%
Variant = M176V; value = 16.8%
Variant = V62D; value = -6.83%
Variant = L94T; value = -7.42%
Variant = V143R; value = 7.65%
Variant = E129S; value = 55.1%
Variant = T101F; value = 73.1%
Variant = Y53T; value = -16.4%
Variant = L164C; value = 45.3%
Variant = F5D; value = 12.3%
Variant = E14H; value = 4.62%
Variant = S171C; value = 26.1%
Variant = D96Q; value = 3.59%
Variant = T135Y; value = -15.6%

Repeated from above (series 5):
Variant = T101F; value = 73.1%
Variant = M176V; value = 16.8%
Variant = E14H; value = 4.62%
Variant = D96Q; value = 3.59%
Variant = V143R; value = 7.65%
Variant = R24S; value = 14.3%
Variant = S171C; value = 26.1%
Variant = Y53T; value = -16.4%
Variant = F5D; value = 12.3%
Variant = R123M; value = 18.5%
